{"data": "Measured values collected from several papers", "note": "Every numbered part comes from another study and shows a few of its results, in no order."}
{"data": "Series 1", "target": "Histone acetyltransferase KAT6A, winged helix 2, GST fusion (KAT6A, Homo sapiens, UniProt Q92794, residues 85-181)", "technique": "protein binding microarray", "form": "double-stranded DNA, one strand shown", "medium": "in vitro", "tested at": "not given", "notes": "8-mer, flanks averaged, mean of 2 arrays, mostly near background", "relative to": "not given", "reading": "higher = stronger binding", "Target sequence (chain)": "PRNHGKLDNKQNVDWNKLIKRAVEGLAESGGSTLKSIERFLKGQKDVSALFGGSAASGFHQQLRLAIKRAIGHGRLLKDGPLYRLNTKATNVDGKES"}
{"Oligonucleotide": "ATCCTATC", "E-score": -0.138}
{"Oligonucleotide": "CGCTCGCC", "E-score": 0.11}
{"Oligonucleotide": "ATTGAACA", "E-score": -0.0609}
{"Oligonucleotide": "CGAACTAA", "E-score": 0.111}
{"Oligonucleotide": "GGATTATA", "E-score": -0.106}
{"Oligonucleotide": "GGCCTTAA", "E-score": -0.0755}
{"Oligonucleotide": "CTCATCCC", "E-score": -0.0833}
{"Oligonucleotide": "ACTGGGTC", "E-score": -0.115}
{"Oligonucleotide": "ATGGGAGC", "E-score": -0.124}
{"Oligonucleotide": "CTTAGGGA", "E-score": -0.159}
{"Oligonucleotide": "CAATTATA", "E-score": -0.0257}
{"Oligonucleotide": "CACTACCC", "E-score": -0.113}
{"Oligonucleotide": "AGAGATCC", "E-score": 0.0452}
{"Oligonucleotide": "AAAACCGG", "E-score": 0.09}
{"Oligonucleotide": "AGAGGCGA", "E-score": -0.00282}
{"Oligonucleotide": "AGTACTCC", "E-score": -0.048}
{"Oligonucleotide": "TGCGCCCA", "E-score": -0.0556}
{"Oligonucleotide": "AGTTGTAT", "E-score": -0.0204}
{"Oligonucleotide": "GACTACAC", "E-score": -0.178}
{"data": "Series 2", "target": "Interferon regulatory factor 5, full length, phosphomimetic (IRF5, Homo sapiens, UniProt Q13568-2, residues 1-514, K96S/S451D/S453D/S456D/S462D)", "technique": "protein-binding microarray", "form": "double-stranded DNA, one strand shown", "medium": "in vitro", "tested at": "250 nM", "notes": "60-bp whole probe", "together with": "salmon DNA 0.4 mg/ml", "relative to": "random background probes", "reading": "higher = stronger binding", "shared flanks, not repeated": "GCCTAGCAC … GTCTTGATTCGCTTGACGCTGCTG"}
{"Oligonucleotide": "GACGATTTCAGACTGGAGATGTGCTAG", "log fluorescence [z-score]": 0.32}
{"Oligonucleotide": "TCACTTTTCCATTTTGTACTGTGCTAG", "log fluorescence [z-score]": 1.4}
{"Oligonucleotide": "GACGATATCAGTTGCGAGACGTGCTAG", "log fluorescence [z-score]": 1.57}
{"Oligonucleotide": "TCAGTTGTAGTTTTCATACTGTGCTAG", "log fluorescence [z-score]": 1.02}
{"Oligonucleotide": "TCACATTTATATCTTTGACTGTGCTAG", "log fluorescence [z-score]": 0.898}
{"Oligonucleotide": "GACGTTATCCTTCTCCTGACGTGCTAG", "log fluorescence [z-score]": 0.134}
{"Oligonucleotide": "TCAACTCTTTCTGTCAGACTGTGCTAG", "log fluorescence [z-score]": 3.86}
{"Oligonucleotide": "TTAGGTTTCCTTATCATTTAGTGCTAG", "log fluorescence [z-score]": 1.53}
{"Oligonucleotide": "TTAGGAATGGACTTTCGGTTAGTGCTA", "log fluorescence [z-score]": 9.56}
{"Oligonucleotide": "TTAGAACTGAATTTCGATTAGTGCTAG", "log fluorescence [z-score]": 6.39}
{"Oligonucleotide": "TTACGTATCGGGTTTCGGTTAGTGCTA", "log fluorescence [z-score]": 9.24}
{"Oligonucleotide": "CAGAATCCCCTTCTACTCTCGTGCTAG", "log fluorescence [z-score]": 0.00646}
{"Oligonucleotide": "TTAGAACTGAGTCTCGTTTAGTGCTAG", "log fluorescence [z-score]": 0.121}
{"Oligonucleotide": "TTGGTTTTCTCTATTGCTTTGTGCTAG", "log fluorescence [z-score]": 1.6}
{"Oligonucleotide": "GACGGTTTCCTATTGCTGACGTGCTAG", "log fluorescence [z-score]": 0.668}
{"Oligonucleotide": "CACATTCTCTGCTTGGGTCTGTGCTAG", "log fluorescence [z-score]": 0.269}
{"Oligonucleotide": "GACGGTCTCCTTTTCCCGACGTGCTAG", "log fluorescence [z-score]": 0.219}
{"Oligonucleotide": "GACGATTTCGGCTTTCGAGACGTGCTA", "log fluorescence [z-score]": 4.87}
{"Oligonucleotide": "TTAGAACTGAGAGTGGATTAGTGCTAG", "log fluorescence [z-score]": 0.0847}
{"Oligonucleotide": "GAGGGTCTCGGTATCGGGACGTGCTAG", "log fluorescence [z-score]": 0.84}
{"Oligonucleotide": "GACGGTCTCCTACTGCCGACGTGCTAG", "log fluorescence [z-score]": -0.362}
{"Oligonucleotide": "TCAAACTTGTATTTGTCACTGTGCTAG", "log fluorescence [z-score]": 0.407}
{"Oligonucleotide": "TCAAGTTTAATATCTAAGACTGTGCTA", "log fluorescence [z-score]": 0.19}
{"Oligonucleotide": "GACGGTTTCGAGTATCGGGACGTGCTA", "log fluorescence [z-score]": 6.14}
{"Oligonucleotide": "GACCATATCAGTCTCGAGACGTGCTAG", "log fluorescence [z-score]": 0.634}
{"data": "Series 3", "target": "Ras GTPase-activating protein-binding protein 1, full length (G3BP1, Homo sapiens, UniProt Q13283)", "technique": "RNA Bind-n-Seq", "form": "RNA", "medium": "in vitro", "tested at": "200 nM", "notes": "whole 134-nt RNA, ends assumed", "together with": "150 mM KCl", "relative to": "input library", "reading": "higher = stronger binding", "shared flanks, not repeated": "GGGAGUUCUACAGUCCGACGAUC … UGGAAUUCUCGGGUGUCAAGG", "UniProt Q13283, sequence (whole entry, looked up)": "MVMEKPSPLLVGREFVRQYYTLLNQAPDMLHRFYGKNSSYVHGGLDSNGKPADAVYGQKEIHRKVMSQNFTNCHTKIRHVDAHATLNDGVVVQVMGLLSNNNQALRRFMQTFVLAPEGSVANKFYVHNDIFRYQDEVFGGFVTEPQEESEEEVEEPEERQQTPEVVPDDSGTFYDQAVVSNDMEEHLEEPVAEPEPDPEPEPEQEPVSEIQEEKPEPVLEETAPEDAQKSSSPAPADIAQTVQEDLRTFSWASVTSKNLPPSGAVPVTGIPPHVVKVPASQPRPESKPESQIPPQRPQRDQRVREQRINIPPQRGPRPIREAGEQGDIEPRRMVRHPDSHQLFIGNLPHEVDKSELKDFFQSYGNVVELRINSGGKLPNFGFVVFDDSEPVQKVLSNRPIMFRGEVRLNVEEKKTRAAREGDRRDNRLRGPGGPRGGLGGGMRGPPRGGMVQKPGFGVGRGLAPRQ"}
{"Oligonucleotide": "UGACCCUGGUGGCAUGCGGGGAGGAAGAGGUGGCCUCAUGGAUCGUGGUGGUCCCGGUGGAAUGUUCAGAGGUGGCCGUGGUGGAGACAG", "log2 enrichment": 0.419}
{"Oligonucleotide": "AAGUCCUGUGCUACACAUCGUAUGUACCGAAUCGGGGAAAAAGGGGUGGGGUGGGGAAAGUAUUAUGUUACGCCGUUCGGAUCUGCACUU", "log2 enrichment": 0.72}
{"Oligonucleotide": "AAGUCCUGUGCUACACAUCGUAUGUACCGAAUCGGGGAAAAAGGGGAGGGGAGGGGAAAGUAUUAUGUUACGCCGUUCGGAUCUGCACUU", "log2 enrichment": 0.441}
{"Oligonucleotide": "UGUCAUGGAUUCAAGUUAUUAAAAGCAUAAGUUUGGAAGACAGGCUUGCCGAAAUUGAGGACAUGAUUAAAAUUGCAGUGAAGUUUGAAA", "log2 enrichment": -2.55}
{"Oligonucleotide": "UCCUGUGCUACACAUCGUAUGUACCGAAUCGGGGAAAAAGGGAAAAAGGGGAAAAAGGGAAAGUAUUAUGUUACGCCGUUCGGAUCUGCA", "log2 enrichment": -0.0363}
{"Oligonucleotide": "GUCCUGUGCUACACAUCGUAUGUACCGAAUCGGAAAAAAAGGUUUUUUUGGAAAAAGGAAAGUAUUAUGUUACGCCGUUCGGAUCUGCAC", "log2 enrichment": -1.56}
{"Oligonucleotide": "CAAGUCCUGUGCUACACAUCGUAUGUACCGAAUCGGGCCCGGGCCCGGGCCCGGGAAAGUAUUAUGUUACGCCGUUCGGAUCUGCACUUC", "log2 enrichment": -1.04}
{"Oligonucleotide": "UCAAGUCCUGUGCUACACAUCGUAUGUACCGAAUCGGGAGGGAAAAAGGGUGGGAAAGUAUUAUGUUACGCCGUUCGGAUCUGCACUUCC", "log2 enrichment": 0.912}
{"Oligonucleotide": "AGUCCUGUGCUACACAUCGUAUGUACCGAAUCAAAUUUAAAUUUAAAUUUUUUUAAAAAAGUAUUAUGUUACGCCGUUCGGAUCUGCACU", "log2 enrichment": -1.73}
{"Oligonucleotide": "GAGGAGCUGCUGCUGGAGCCCGAGCCGGAGCCCGAGCCCGAAGAGGAGCCGCCCCGGCCCCGCGCCCCCCCGGGAGCUCCGGGCCCUGGG", "log2 enrichment": -1.23}
{"Oligonucleotide": "UAACUUUAGAGGAGGAUCUGAUGGAUAUGGCAGUGGACGUGGAUUUGGGGAUGGCUAUAAUGGGUAUGGAGGAGGACCUGGACGUGGCAA", "log2 enrichment": 0.118}
{"Oligonucleotide": "AAUGUGUCCUCCCUGUCCAAAUUGGGAAUGACUUAAUGUCAAUUUGUUUGUUGGUUGUUUUAAUAAUACUUCCUUAUGUAGCCAUUAAGA", "log2 enrichment": -0.729}
{"Oligonucleotide": "UGCGGGACAAAGAAGUGGCCAAUCGAUACUUUACCACUGUCUGUGUGAGAUUACUGCUUGAGAGCAAAGAAAAGAAGAUCAGGGAAUUCA", "log2 enrichment": 0.927}
{"Oligonucleotide": "CAAGUCCUGUGCUACACAUCGUAUGUACCGAAUCGGGCCCGGGGCCCGGGGCCCGGAAAGUAUUAUGUUACGCCGUUCGGAUCUGCACUU", "log2 enrichment": -0.782}
{"data": "Series 4", "target": "RNA binding protein fox-1 homolog 2, RRM domain, GST-SBP tag (RBFOX2, Homo sapiens, UniProt O43251-10, residues 100-194)", "technique": "RNA Bind-n-Seq", "form": "RNA", "medium": "in vitro", "tested at": "365 nM", "notes": "natural RNA segment, single round, ends assumed", "relative to": "no-protein control", "reading": "higher = stronger binding", "shared flanks, not repeated": "GGGAGUUCUACAGUCCGACGAUC … UGGAAUUCUCGGGUGCCAA", "Target sequence (chain)": "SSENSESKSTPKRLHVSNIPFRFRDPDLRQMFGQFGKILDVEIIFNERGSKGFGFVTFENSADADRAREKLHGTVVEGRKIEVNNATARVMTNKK"}
{"Oligonucleotide": "UCUCGUUUACUGAUAAUAGUAAAGUUGAUUCAUGACCCCUGUCCUUUUUUUUCUACUGAUCUACCCAAGUGUAGGUGAGCCGCAGCAGGGAGUGAUUCCUAGAAGACGGA", "RBNS enrichment (R)": 0.284}
{"Oligonucleotide": "UCAGGGUCAGAGCCCCUGAUCUGCUGAUGUUUGGUUGGGUGUCCAUGAGGGCCCCUCCCACCCAGUAUUUGUGGAGUCCAGGCGCCUGCCCUGUUUCAUGCCAGGGCCAC", "RBNS enrichment (R)": 0.215}
{"Oligonucleotide": "GGUGUAUGGUGGGGGCAAUAAAUGAGGUUUUUUGCAUUCCAAGGAAAUGGCAUAUGGAUUAACUAUAAGAAAUGAAAUAAGUAAUUUAUUGUAAGACAACAUCAAGCCAU", "RBNS enrichment (R)": 0.772}
{"Oligonucleotide": "UGAAUUGUGGCAGAGCUUAGAUCCUGCACCCAGGGGUCUUUUUUUCAAACAGCAUCUUGCUCAGUUCUGUGAACAGAAGGCUUUGUUACUGAAGGAGGUGGAAGAGGAGU", "RBNS enrichment (R)": 0.438}
{"Oligonucleotide": "AAUCAACUAGAUUGACCUAGGUUAAAAUUUCAAAAGGCUCAUUUUCUCCCAAAGCUAAAUCUUUAUAUUAGGAACAAUUAAAUAUUGACUUAAGUUGUAAAAAUUGAGAG", "RBNS enrichment (R)": 0.891}
{"Oligonucleotide": "GUUCAUCUUGUCUAUUUUUUCUCUUCAUGUUGUAACAAAAAGGAAAAAAGAAAAAAAAAUCCCAUCCCUUUUGUACAUAUGCCUGUAAAUUGUUUUAAAUACUUGAGCCU", "RBNS enrichment (R)": 2.24}
{"Oligonucleotide": "UGGCCAUAUCCCAGAACACUACCUCAUCCACCUGGCAGAGGGAAUUUCUGCUUCAGCCACCAAGCAGUUGUCUGUGUCCCUCAUCCAGAGGGGGCCUUGGCCACCAACAG", "RBNS enrichment (R)": 0.389}
{"Oligonucleotide": "GUAAAUAUUUUCACCACGAUCGAUUAGACUGGGAUGAACACAGUUCUGCCGGCAGAUAUGUUUCAAGACGCUGUAAACCUCUGAAGGAAUUUAUGCUUUCUCAAGAUGUU", "RBNS enrichment (R)": 0.398}
{"Oligonucleotide": "AUUGGUGAGCAGCUAACUCGCUCAUUGAUGAGCAGCUAACUCUCACACACAUACACACACACACACACACACACACACCCCGACACCCUGCUUUUCAUACAGAACUAGCC", "RBNS enrichment (R)": 0.574}
{"Oligonucleotide": "UGCCUCUCUGUGCUUGGCUCUGGCAGAAGGCACCCAGUGACAUCAGGCAUCAGGCCCAGUGACAGUGCACCAAAGACACAGAGCCUGGAAGGGCUGUCGGGACAUACUUU", "RBNS enrichment (R)": 0.341}
{"Oligonucleotide": "AGAGGAAAUUUCCUCACCUCCCAAUUCUGUGUAAUCAAGAAUACCUCCUUAAUUCUGAGAGCAUGAAUAUUUGACCUUAAAUCUCCAGUGACUCAGAGCUUCACCCACAA", "RBNS enrichment (R)": 0.779}
{"Oligonucleotide": "CCAAUUUUCUUCUACAGCAGAACUUUGAUGAAGAUUGAAGGGACUUUUUUAUAUCUCACACUUCACACCAGUGCAUUACACUAACUUGUUCACUGGAUUGUCUGGGAUGA", "RBNS enrichment (R)": 0.352}
